Results collected from several papers.
Each line is one published result; not all experiments were run side by side. ± marks the error that the study gave.
AGER: Advanced glycosylation end product-specific receptor (AGER, Homo sapiens, UniProt Q15109)
Sequence of UniProt Q15109 (whole entry, looked up): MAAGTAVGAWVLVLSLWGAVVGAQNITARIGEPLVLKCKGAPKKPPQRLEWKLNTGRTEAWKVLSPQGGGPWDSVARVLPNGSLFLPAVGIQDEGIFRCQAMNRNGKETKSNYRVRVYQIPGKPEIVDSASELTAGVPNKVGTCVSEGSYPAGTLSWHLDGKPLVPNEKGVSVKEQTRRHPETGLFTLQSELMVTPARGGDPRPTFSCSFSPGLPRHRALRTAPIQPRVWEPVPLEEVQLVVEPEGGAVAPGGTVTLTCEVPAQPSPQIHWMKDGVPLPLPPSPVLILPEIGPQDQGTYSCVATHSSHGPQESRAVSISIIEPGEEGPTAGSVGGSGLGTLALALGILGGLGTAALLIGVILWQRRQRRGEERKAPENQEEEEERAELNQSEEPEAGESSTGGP
GLO1: Lactoylglutathione lyase (GLO1, Homo sapiens, UniProt Q04760)
Sequence of UniProt Q04760 (whole entry, looked up): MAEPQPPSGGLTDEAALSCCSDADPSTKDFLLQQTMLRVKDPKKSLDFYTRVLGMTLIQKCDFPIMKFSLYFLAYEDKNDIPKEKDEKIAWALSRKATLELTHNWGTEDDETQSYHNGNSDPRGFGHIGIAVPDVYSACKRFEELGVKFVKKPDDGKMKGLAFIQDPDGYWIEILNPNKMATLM
FLT3 ITD: Receptor-type tyrosine-protein kinase FLT3 (FLT3, Homo sapiens, UniProt P36888, ITD)
SLC7A5: Large neutral amino acids transporter small subunit 1 (SLC7A5, Homo sapiens, UniProt Q01650)
Sequence of UniProt Q01650 (whole entry, looked up): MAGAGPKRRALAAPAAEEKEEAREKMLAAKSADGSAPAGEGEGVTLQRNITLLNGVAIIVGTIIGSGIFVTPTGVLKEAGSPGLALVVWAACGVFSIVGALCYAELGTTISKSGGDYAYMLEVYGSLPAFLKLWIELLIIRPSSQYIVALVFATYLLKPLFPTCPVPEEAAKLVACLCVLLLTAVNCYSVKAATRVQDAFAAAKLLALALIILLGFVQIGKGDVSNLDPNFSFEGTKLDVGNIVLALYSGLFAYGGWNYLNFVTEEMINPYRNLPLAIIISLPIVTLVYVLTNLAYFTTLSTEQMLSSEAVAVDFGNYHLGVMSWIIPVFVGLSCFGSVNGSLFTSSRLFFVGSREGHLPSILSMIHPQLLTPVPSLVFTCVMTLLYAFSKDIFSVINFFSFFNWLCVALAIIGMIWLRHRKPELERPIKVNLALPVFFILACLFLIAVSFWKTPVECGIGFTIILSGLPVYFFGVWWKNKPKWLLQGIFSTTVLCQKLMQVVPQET
lecA: PA-I galactophilic lectin (lecA, Pseudomonas aeruginosa, UniProt Q05097)
Sequence of UniProt Q05097 (whole entry, looked up): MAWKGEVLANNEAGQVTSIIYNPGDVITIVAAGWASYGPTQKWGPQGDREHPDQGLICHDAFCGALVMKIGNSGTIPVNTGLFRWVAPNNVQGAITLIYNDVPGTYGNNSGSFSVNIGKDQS
GSTO1: Glutathione S-transferase omega-1 (GSTO1, Homo sapiens, UniProt P78417)
Sequence of UniProt P78417 (whole entry, looked up): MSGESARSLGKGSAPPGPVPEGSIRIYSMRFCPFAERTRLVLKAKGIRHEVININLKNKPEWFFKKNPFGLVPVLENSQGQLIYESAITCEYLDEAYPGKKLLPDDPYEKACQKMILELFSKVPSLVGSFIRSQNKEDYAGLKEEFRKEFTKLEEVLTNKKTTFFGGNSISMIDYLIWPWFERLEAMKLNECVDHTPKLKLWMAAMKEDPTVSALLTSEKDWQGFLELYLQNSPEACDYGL
Succinate dehydrogenase complex: Succinate dehydrogenase complex (Sus scrofa, UniProt A5GZW8+D0VWV4+Q007T0+Q0QF01)
Sequence of UniProt Q0QF01 (whole entry, looked up): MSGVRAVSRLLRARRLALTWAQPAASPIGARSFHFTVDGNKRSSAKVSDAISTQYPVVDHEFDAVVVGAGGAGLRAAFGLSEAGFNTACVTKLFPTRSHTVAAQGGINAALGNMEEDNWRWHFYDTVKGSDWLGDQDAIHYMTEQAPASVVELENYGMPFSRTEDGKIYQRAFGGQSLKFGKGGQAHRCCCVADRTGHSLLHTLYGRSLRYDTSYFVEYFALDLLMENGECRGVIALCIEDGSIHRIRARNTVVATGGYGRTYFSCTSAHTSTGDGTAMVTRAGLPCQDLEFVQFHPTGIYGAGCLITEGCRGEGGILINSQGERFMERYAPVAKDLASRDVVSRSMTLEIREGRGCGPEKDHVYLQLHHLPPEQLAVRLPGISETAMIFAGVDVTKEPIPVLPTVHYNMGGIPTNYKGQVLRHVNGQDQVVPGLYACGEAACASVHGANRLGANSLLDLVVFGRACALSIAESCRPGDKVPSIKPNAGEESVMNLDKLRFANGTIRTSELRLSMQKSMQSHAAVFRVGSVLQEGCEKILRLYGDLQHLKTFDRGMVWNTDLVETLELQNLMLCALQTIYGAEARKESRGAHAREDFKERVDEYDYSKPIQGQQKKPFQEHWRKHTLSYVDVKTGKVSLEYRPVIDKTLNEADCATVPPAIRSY
Sequence of UniProt Q007T0 (whole entry, looked up): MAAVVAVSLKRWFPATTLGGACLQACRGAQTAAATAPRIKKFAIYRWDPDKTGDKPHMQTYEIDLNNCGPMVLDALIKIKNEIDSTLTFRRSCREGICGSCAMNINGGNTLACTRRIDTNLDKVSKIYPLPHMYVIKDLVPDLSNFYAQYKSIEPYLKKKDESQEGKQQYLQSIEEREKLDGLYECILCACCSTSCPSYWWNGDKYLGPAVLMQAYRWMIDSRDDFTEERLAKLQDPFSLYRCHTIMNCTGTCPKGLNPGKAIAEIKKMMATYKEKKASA
Sequence of UniProt A5GZW8 (whole entry, looked up): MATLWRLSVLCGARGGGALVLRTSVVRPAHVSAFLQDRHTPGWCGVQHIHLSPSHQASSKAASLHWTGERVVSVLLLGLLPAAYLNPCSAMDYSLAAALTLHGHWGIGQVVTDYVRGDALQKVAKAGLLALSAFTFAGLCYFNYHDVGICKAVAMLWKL
Sequence of UniProt D0VWV4 (whole entry, looked up): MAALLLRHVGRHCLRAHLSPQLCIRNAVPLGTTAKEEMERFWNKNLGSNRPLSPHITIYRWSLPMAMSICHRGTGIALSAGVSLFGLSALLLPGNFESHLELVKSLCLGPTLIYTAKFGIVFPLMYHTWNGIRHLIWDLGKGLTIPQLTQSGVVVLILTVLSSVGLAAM
Sequence of UniProt O60218 (whole entry, unmodified, looked up): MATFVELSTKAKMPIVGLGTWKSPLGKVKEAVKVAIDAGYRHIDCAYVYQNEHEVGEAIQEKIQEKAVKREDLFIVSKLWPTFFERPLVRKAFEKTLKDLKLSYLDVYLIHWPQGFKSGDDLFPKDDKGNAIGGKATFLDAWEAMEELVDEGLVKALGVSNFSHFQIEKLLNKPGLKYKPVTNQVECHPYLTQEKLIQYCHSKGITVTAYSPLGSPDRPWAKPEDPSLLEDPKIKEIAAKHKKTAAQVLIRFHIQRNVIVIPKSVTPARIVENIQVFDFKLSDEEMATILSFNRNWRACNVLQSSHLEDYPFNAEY
Sequence of UniProt Q9Y3R4 (whole entry, looked up): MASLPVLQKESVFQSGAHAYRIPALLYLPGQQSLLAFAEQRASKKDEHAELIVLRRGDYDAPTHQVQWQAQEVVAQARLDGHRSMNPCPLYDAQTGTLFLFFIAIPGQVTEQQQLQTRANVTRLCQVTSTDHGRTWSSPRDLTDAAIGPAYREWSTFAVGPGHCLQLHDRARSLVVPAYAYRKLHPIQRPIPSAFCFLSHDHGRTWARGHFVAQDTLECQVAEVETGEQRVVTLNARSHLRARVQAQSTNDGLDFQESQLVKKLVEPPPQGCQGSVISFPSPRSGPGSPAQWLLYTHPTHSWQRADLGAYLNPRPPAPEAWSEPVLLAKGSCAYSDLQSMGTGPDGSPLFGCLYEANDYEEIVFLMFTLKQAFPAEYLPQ
Sequence of UniProt P40261 (whole entry, looked up): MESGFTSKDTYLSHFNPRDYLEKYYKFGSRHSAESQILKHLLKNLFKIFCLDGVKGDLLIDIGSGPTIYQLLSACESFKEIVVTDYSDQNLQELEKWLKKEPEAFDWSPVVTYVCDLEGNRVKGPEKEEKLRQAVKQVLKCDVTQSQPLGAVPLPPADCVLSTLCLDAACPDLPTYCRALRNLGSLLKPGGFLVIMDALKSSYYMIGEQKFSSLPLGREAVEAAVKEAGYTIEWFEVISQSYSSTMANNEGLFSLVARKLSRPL

SMILES	target	assay	test system	setting	inhibition
CCC(=O)N(C)c1ccc(Cl)c(Cl)c1	5-hydroxytryptamine receptor 2B (HTR2B, Homo sapiens, UniProt P41595)	ligand displacement, radioligand	–	10 µM	23%
COc1ccc(NC(=O)c2cc3cccc(Cl)c3s2)cc1	AGER	binding to AGE-BSA, competitive ELISA	–	100 µM, 60 min	45%
NS(=O)(=O)c1ccc(/N=N/c2c(O)ccc3ccccc23)cc1	GLO1	enzyme activity, inhibitor	–	25 µM	72.5%
Oc1cc(O)c2c(c1)O[C@H](c1cc(O)c(O)c(O)c1)[C@@H](O)C2 (racemic)	maltase, rat	enzyme activity, inhibitor	rat intestinal brush border vesicles	10 µM	78.5%
C/C(=N\NC(=O)c1cccc(S(=O)(=O)N2CCOCC2)c1)c1cc(Cl)ccc1O	Lysine-specific histone demethylase 2 (KDM1B, Homo sapiens, UniProt Q8NB78)	enzyme activity, inhibitor, TR-FRET	–	10 µM	< 50%
FC(F)(F)c1n[nH]cc1-c1nc2ccc3[nH]ncc3c2c2c1CC2	FLT3 ITD	enzyme activity, inhibitor, ADP detection	–	0.1 µM	21%
Nc1ccc(/N=N/c2ccc(S(N)(=O)=O)cc2)c2ccc(O)cc12	GLO1	enzyme activity, inhibitor	–	25 µM	50.2%
O=C(O[C@@H]1Cc2c(O)cc(O)cc2O[C@@H]1c1ccc(O)c(O)c1)c1ccc(O)cc1	maltase, rat	enzyme activity, inhibitor	rat intestinal brush border vesicles	10 µM	67.6%
COc1cccc2c1C(=O)c1c(O)c3c(c(O)c1C2=O)CC(O)(C(=O)CO)CC3OC1CC(NC(=O)C[C@H](N)C(=O)O)C(O)C(C)O1 (some centres unmarked)	SLC7A5	L-leucine uptake, inhibitor	S2 cells expressing LAT1	100 µM, added: [3H]L-leucine 2 µM	inhibited
O=[N+]([O-])c1ccc(O)c(O)c1	lecA	ligand displacement, FP	–	4 mM	33%
c1ccc(-n2cc(-c3nc4ccc5[nH]ncc5c4c4c3CCCC4)cn2)cc1	FLT3 ITD	enzyme activity, inhibitor, ADP detection	–	0.1 µM	9%
NS(=O)(=O)c1ccc(/N=N/c2ccc(O)cc2)cc1	GLO1	enzyme activity, inhibitor	–	25 µM	94.2%
O=C(Nc1ccc(OCCN2CCCC2)cc1)c1cc2ccc(Cl)cc2s1	AGER	binding to AGE-BSA, competitive ELISA	–	100 µM, 60 min	≤ 89%
COc1ccc(/C=C/C(=O)N2CCN(c3ccccc3)CC2)cc1	Agaricus bisporus tyrosinase	monophenolase activity	–	500 µM, added: L-tyrosine substrate	29.6 ± 1.7%
O=C(Nc1ccccc1)Oc1ccc2c(c1)CCCN2C(=O)CCl	Aldo-keto reductase family 1 member B10 (AKR1B10, Homo sapiens, UniProt O60218, C299A)	reductase activity, NADPH absorbance	HEK-293T lysate	0.5 to 50 µM, 1 h	no inhibition
Oc1ccc(CCC(O)CC(O)CCc2ccc(O)cc2)cc1 (centres unmarked)	Amine oxidase [flavin-containing] B (Maob, Rattus norvegicus, UniProt P19643)	enzyme activity, inhibitor	–	4 µg/mL	12.3 ± 0.6%
CC1(C)SC(C(CCc2ccccc2)B(O)O)N[C@H]1C(=O)O (some centres unmarked)	D-alanyl-D-alanine carboxypeptidase (Actinomadura sp. R39, UniProt P39045)	enzyme activity, inhibitor	–	concentration not given	no inhibition
COC(=O)CCSc1nc2n(n1)C(c1cccc(OC)c1)C(C(=O)Nc1cncc(C)c1)=C(C)N2 (centres unmarked)	Serine/threonine-protein kinase mTOR (MTOR, Homo sapiens, UniProt P42345)	enzyme activity, inhibitor, TR-FRET	–	10 µM	98.2%
CCCCCCCCCCCCCC(=O)N[C@@H](CO)C(=O)N[C@H](C(=O)N[C@@H](CCCNC(=N)N)C(=O)N[C@@H](Cc1ccc(O)cc1)C(=O)N[C@@H](CO)C(=O)NCC(=O)N[C@@H](Cc1c[nH]cn1)C(=O)N[C@@H](COP(=O)(O)O)C(=O)N[C@@H](CC(C)C)C(=O)O)[C@@H](C)CC	14-3-3 protein zeta/delta, with GPIb-IX (YWHAZ, Homo sapiens, UniProt P63104)	GPIb-IX binding, co-immunoprecipitation	platelets	concentration not given	~80%
CC(=O)N[C@H]1NC[C@H](C(=O)O)[C@H](O)[C@@H]1O	Sialidase-2 (Homo sapiens, UniProt Q9Y3R4)	enzyme activity, inhibitor	–	600 µM, pH 6	52%
COc1ccc(NC(=O)c2cc3ccccc3s2)cc1	AGER	binding to AGE-BSA, competitive ELISA	–	100 µM, 60 min	0%
CC(=O)c1ccc(O)c(O)c1	lecA	ligand displacement, FP	–	4 mM	10%

SMILES	target	assay	test system	setting	inhibition
O=C(c1cc2ccc(Cl)cc2s1)N(c1ccc(OCCN2CCCC2)cc1)c1ccc(OCCN2CCCC2)cc1	AGER	binding to AGE-BSA, competitive ELISA	–	100 µM, 60 min	97%
COc1cc(C(=O)NC2CCC(N3CCN(CC4CCC5(CCCC5)C4)CC3)CC2)c(F)cc1Nc1ncc2c(n1)N(C1CCCC1(F)F)CC(F)(F)C(=O)N2C (centres unmarked)	Ephrin type-A receptor 6 (EPHA6, Homo sapiens, UniProt Q9UF33)	cell-free assay, TR-FRET	–	10 µM	4.17%
O=C(NC1CCCCC1)C(c1ccccn1)N(C(=O)CCl)c1cccc(Cl)c1 (racemic)	GSTO1	competitive ABPP	MDA-MB-435	1 µM, 12 h, 10% serum	85%
O=C(CS(=O)(=O)Cc1ccco1)C12CC3CC(CC(C3)C1)C2	17-beta-hydroxysteroid dehydrogenase type 1 (HSD17B1, Homo sapiens, UniProt P14061)	–	–	10 µM	inactive
C#CCSc1nc(Sc2nnnn2-c2ccccc2)c2nnn(Cc3ccccc3Cl)c2n1	Amine oxidase [flavin-containing] A (MAOA, Homo sapiens, UniProt P21397)	enzyme activity, inhibitor, luciferase	–	1 µM	< 10%
O=C(O)c1cc(/N=N/c2ccccc2)c2ccccc2c1O	GLO1	enzyme activity, inhibitor	–	25 µM	90%
COc1ccc(C[C@H](NC(=O)[C@H](C)NC(=O)CN2CCOCC2)C(=O)N[C@@H](Cc2ccccc2)C(=O)C2(C)CO2)cc1 (stereo in doubt)	Proteasome subunit beta type-5 (Babesia divergens, UniProt A0AAD9GDK3)	proteasome activity	Babesia divergens, parasite lysate	1 µM, added: Suc-LLVY-AMC substrate	> 90%
CC(=O)C12NC(C)(C)CC1(C)C(=O)C1=C2c2c(c3c4n2C(C)(C)CC2=C4C4(CC(C)(C)NC(C)(C4)C2=O)CC3(C)C)C(=O)C(C)(C)N1 (single isomer, unassigned; (-))	Sodium channel protein type 10 subunit alpha (SCN10A, Homo sapiens, UniProt Q9Y5Y9)	sodium current, whole-cell patch clamp	HEK293T	10 µM	20 to 50%
CCOC(=O)C1=CN([C@@H]2O[C@H](CO)[C@@H](O)[C@H]2O)C=CC1	NAD-dependent protein deacylase sirtuin-5, mitochondrial (SIRT5, Homo sapiens, UniProt Q9NXA8, A86S)	desuccinylase activity, inhibitor	–	concentration not given	2.5 fold
O=C(Nc1ccccc1Nc1ccccc1)c1cccnc1F	Succinate dehydrogenase complex	enzyme activity, double-antibody sandwich ELISA	–	2 µM	6.02%
O=C(CCl)N(CCNC(=O)C(F)(F)F)c1ccc(Cl)cc1	GSTO1	competitive ABPP	MDA-MB-435	1 µM, 12 h, 10% serum	65%
O=C(Nc1ccccc1Nc1ccccc1)c1cccnc1Br	Succinate dehydrogenase complex	enzyme activity, double-antibody sandwich ELISA	–	0.5 µM	12.6%
CC[C@H](C)[C@H](NC(=O)[C@H](CCCNC(=N)N)NC(=O)[C@H](CCCCN)NC(=O)[C@@H]1CCCN1C(=O)[C@@H]1CCCN1CCCN(CC[C@H](N)C(=O)O)C[C@H]1O[C@@H](n2cnc3c(N)ncnc32)[C@H](O)[C@@H]1O)C(=O)N[C@@H](C)C(N)=O	Nicotinamide N-methyltransferase (NNMT, Homo sapiens, UniProt P40261)	enzyme activity, inhibitor	–	33 µM	< 20%
C#CCCCCNC(=O)C(c1ccccn1)N(C(=O)CCl)c1cccc(F)c1 (racemic)	GSTO1	probe labelling, gel-based competitive ABPP	MDA-MB-435 soluble proteome	100 nM, added: SE-Rh probe	80%
COc1ncccc1C(=O)Nc1ccccc1Nc1ccccc1	Succinate dehydrogenase complex	enzyme activity, double-antibody sandwich ELISA	–	2 µM	40%
O=C(CCl)N(CCNC(=O)C(F)(F)F)c1ccc([N+](=O)[O-])cc1	GSTO1	competitive ABPP	MDA-MB-435	1 µM, 12 h, 10% serum	65%
N#Cc1ccc(O)c(O)c1	lecA	ligand displacement, FP	–	4 mM	7%
O=C(NC1CCCCC1)C(c1cccnc1)N(C(=O)CCl)c1ccc(F)cc1 (racemic)	GSTO1	probe labelling, inhibitor, competitive ABPP	MDA-MB-435	1 µM, 1 h, 10% serum	100%
O=C(Nc1ccccc1Nc1ccccc1)c1nccnc1Cl	Succinate dehydrogenase complex	enzyme activity, double-antibody sandwich ELISA	–	0.5 µM	8.16%
CC(=O)Nc1cc(COc2c(Cl)cc(CC(N)C(=O)O)cc2Cl)c2oc(-c3ccccc3)nc2c1 (centres unmarked)	SLC7A5	L-[14C]leucine uptake, inhibitor	Xenopus laevis oocytes expressing SLC7A5	10 µM, 30 min, Na+-free, added: 50 µM L-[14C]leucine	inhibited
O=C(Nc1ccccc1Nc1ccccc1)c1cccnc1C(F)(F)F	Succinate dehydrogenase complex	enzyme activity, double-antibody sandwich ELISA	–	8 µM	45.4%
O=C(Nc1ccc(Oc2ccc(F)cc2)cc1)c1cc2ccc(Cl)cc2s1	AGER	binding to AGE-BSA, competitive ELISA	–	100 µM, 60 min	≤ 52%

For quick reference, copied from above:
SMILES	target	assay	test system	setting	inhibition
O=C(CS(=O)(=O)Cc1ccco1)C12CC3CC(CC(C3)C1)C2	17-beta-hydroxysteroid dehydrogenase type 1 (HSD17B1, Homo sapiens, UniProt P14061)	–	–	10 µM	inactive
CC[C@H](C)[C@H](NC(=O)[C@H](CCCNC(=N)N)NC(=O)[C@H](CCCCN)NC(=O)[C@@H]1CCCN1C(=O)[C@@H]1CCCN1CCCN(CC[C@H](N)C(=O)O)C[C@H]1O[C@@H](n2cnc3c(N)ncnc32)[C@H](O)[C@@H]1O)C(=O)N[C@@H](C)C(N)=O	Nicotinamide N-methyltransferase (NNMT, Homo sapiens, UniProt P40261)	enzyme activity, inhibitor	–	33 µM	< 20%
CC(=O)N[C@H]1NC[C@H](C(=O)O)[C@H](O)[C@@H]1O	Sialidase-2 (Homo sapiens, UniProt Q9Y3R4)	enzyme activity, inhibitor	–	600 µM, pH 6	52%
NS(=O)(=O)c1ccc(/N=N/c2ccc(O)cc2)cc1	GLO1	enzyme activity, inhibitor	–	25 µM	94.2%
COc1cccc2c1C(=O)c1c(O)c3c(c(O)c1C2=O)CC(O)(C(=O)CO)CC3OC1CC(NC(=O)C[C@H](N)C(=O)O)C(O)C(C)O1 (some centres unmarked)	SLC7A5	L-leucine uptake, inhibitor	S2 cells expressing LAT1	100 µM, added: [3H]L-leucine 2 µM	inhibited
NS(=O)(=O)c1ccc(/N=N/c2c(O)ccc3ccccc23)cc1	GLO1	enzyme activity, inhibitor	–	25 µM	72.5%
